Experimental data from different studies.
Protocols differ between the studies behind these lines.
Organism: Staphylococcus aureus

| Compound | test | test system | setting | MIC |
| --- | --- | --- | --- | --- |
| CC[C@H](C)[C@H](N)C(=O)N[C@@H](CC(C)C)C(=O)NCC(=O)N[C@H](CCCNC(=N)N)C(=O)N[C@H](C(=O)N[C@@H](Cc1c[nH]c2ccccc12)C(=O)N[C@@H](CCCCN)C(=O)NCC(=O)N[C@H](C(=O)N[C@@H](CCCCN)C(=O)N[C@@H](CC(=O)O)C(=O)N[C@H](C(=O)N[C@@H](CC(C)C)C(N)=O)[C@@H](C)CC)[C@@H](C)CC)[C@@H](C)CC | broth microdilution | MRSA ATCC 33591, Mueller-Hinton broth | 16 h, 37 °C | 12.5 µM |
| Cn1c(=O)cnc2ccc(F)c(CCNC[C@H]3CN(c4cnc5c(n4)NC(=O)CO5)C(=O)O3)c21 | – | ATCC 29213 | – | 0.008 µg/mL |
| CN[C@H](CC(C)C)C(=O)N[C@H]1C(=O)N[C@@H](CC(N)=O)C(=O)N[C@H]2C(=O)N[C@H]3C(=O)N[C@H](C(=O)N[C@H](C(=O)O)c4cc(O)cc(O)c4-c4cc3ccc4O)[C@H](O)c3ccc(c(Cl)c3)Oc3cc2cc(c3O[C@@H]2O[C@H](CO)[C@@H](O)[C@H](O)[C@H]2O[C@H]2C[C@](C)(N)[C@H](O)[C@H](C)O2)Oc2ccc(cc2Cl)[C@H]1O | – | methicillin-resistant | – | 1 µg/mL |
| CC[C@H](C)[C@H](NC(=O)[C@H](CC(C)C)NC(=O)[C@H](CC(C)C)NC(=O)[C@H](CC(C)C)NC(=O)[C@@H](NC(=O)[C@@H](NC(=O)[C@H](CCCNC(=N)N)NC(=O)[C@H](CCCNC(=N)N)NC(=O)[C@H](CCCNC(=N)N)NC(=O)[C@H](CCCNC(=N)N)NC(=O)[C@H](CC(C)C)NC(=O)[C@H](CCCNC(=N)N)NC(=O)[C@H](CO)NC(=O)[C@@H](N)CO)[C@@H](C)CC)C(C)C)C(=O)N[C@@H](CO)C(=O)N[C@@H](CCCNC(=N)N)C(=O)N[C@@H](CCCNC(=N)N)C(=O)N[C@@H](CCCNC(=N)N)C(=O)N[C@@H](CCCNC(=N)N)C(N)=O | broth microdilution | ATCC 29213 | highest value reported | 4 µM |
| CC[C@H](C)[C@H](NC(=O)[C@H](CC(C)C)NC(=O)[C@H](CCCNC(=N)N)NC(=O)[C@@H](N)CCCNC(=N)N)C(=O)N[C@@H](CCCNC(=N)N)C(=O)N[C@H](C(=O)N[C@@H](CCCCN)C(=O)N[C@H](C(=O)NCC(=O)N1CCC[C@H]1C(=O)N[C@H](C(=O)N[C@H](C(=O)N[C@@H](Cc1ccc(O)cc1)C(=O)N[C@@H](CCCCN)C(=O)N[C@@H](Cc1ccc(O)cc1)C(=O)N[C@@H](Cc1ccccc1)C(=O)N[C@@H](CCCCN)C(=O)N[C@@H](CCCCN)C(=O)N[C@@H](CCC(N)=O)C(=O)N[C@@H](CC(C)C)C(=O)N[C@@H](CC(C)C)C(=O)N[C@@H](CCCCN)C(=O)N[C@@H](CCCCN)C(N)=O)[C@@H](C)CC)[C@@H](C)CC)[C@@H](C)O)[C@@H](C)O | – | CCARM 3095, methicillin-resistant, Mueller-Hinton broth | 24 h | > 128 µM |
| CC[C@H](C)[C@H](NC(=O)[C@H](Cc1ccccc1)NC(=O)[C@@H](NC(=O)[C@H](Cc1ccccc1)NC(=O)[C@@H]1CCCN1C(=O)[C@@H](NC(=O)[C@H](C)N)[C@@H](C)CC)[C@@H](C)CC)C(=O)N[C@@H](Cc1c[nH]c2ccccc12)C(=O)N[C@@H](CCCNC(=N)N)C(=O)N[C@@H](CC(C)C)C(=O)N[C@@H](CC(C)C)C(=O)N[C@@H](CCCNC(=N)N)C(=O)N[C@@H](CCCCN)C(=O)NCC(N)=O | broth microdilution | ATCC 6051 | 18 h, 37 °C | 1.88 µM |
| Cl.O[C@]12C=C(c3nccc4c3[nH]c3ccccc34)[C@@H]3CCN(CCCC/C=C\CC1)C[C@@]31C[C@@H]3/C=C\CCCCN3[C@H]12 | growth | ATCC 43300 methicillin-resistant | – | 20 µg/mL |
| CC[C@H](C)[C@H](NC(=O)[C@H](CCCCN)NC(=O)[C@H](CC(=O)O)NC(=O)[C@H](CC(C)C)NC(=O)[C@@H](NC(=O)[C@H](CC(N)=O)NC(=O)[C@H](CC(C)C)NC(=O)[C@@H](NC(=O)[C@H](Cc1ccccc1)NC(=O)[C@H](CCCCN)NC(=O)[C@H](CCCCN)NC(=O)CNC(=O)[C@H](C)NC(=O)[C@H](CC(N)=O)NC(=O)[C@H](CCCCN)NC(=O)[C@H](Cc1ccccc1)NC(=O)[C@H](CC(N)=O)NC(=O)[C@H](CCC(=O)O)NC(=O)[C@H](Cc1c[nH]c2ccccc12)NC(=O)[C@H](CC(C)C)NC(=O)[C@@H](N)CO)[C@@H](C)CC)[C@@H](C)CC)C(=O)N[C@@H](CCCNC(=N)N)C(N)=O | – | ATCC 6538 | overnight, 37 °C, 10 % fetal bovine serum | 8 µM |
| CC[C@H](C)[C@H](NC(=O)CN)C(=O)NCC(=O)N[C@@H](C)C(=O)N[C@H](C(=O)N[C@@H](CC(C)C)C(=O)N[C@@H](CCCCN)C(=O)N[C@H](C(=O)N[C@@H](CC(C)C)C(=O)N[C@H](C(=O)N[C@H](C(=O)NCC(=O)N[C@@H](CC(C)C)C(=O)N1CCC[C@H]1C(=O)N[C@@H](C)C(=O)N[C@@H](CC(C)C)C(=O)N[C@H](C(=O)N[C@@H](CO)C(=O)N[C@@H](Cc1c[nH]c2ccccc12)C(=O)N[C@H](C(=O)N[C@@H](CCCCN)C(=O)N[C@@H](CCCNC(=N)N)C(=O)N[C@@H](CCCCN)C(=O)N[C@@H](CCCNC(=N)N)C(=O)N[C@@H](CCC(N)=O)C(=O)N[C@@H](CCC(N)=O)C(N)=O)[C@@H](C)CC)[C@@H](C)CC)[C@@H](C)O)[C@@H](C)O)C(C)C)C(C)C | – | MRSA 43300 | 24 h, 37 °C | 2 µM |
| CC(C)C[C@@H](NC(=O)CNC(=O)[C@@H](CCCCN)NC(=O)[C@@H](CC(C)C)NC(=O)[C@@H](CCCCN)NC(=O)[C@@H](CCCNC(=N)N)NC(=O)[C@@H](CC(C)C)NC(=O)[C@@H](CC(C)C)NC(=O)[C@@H](CCCNC(=N)N)NC(=O)[C@H](N)CCCNC(=N)N)C(=O)N[C@H](CCCCN)C(=O)N[C@H](CCCCN)C(=O)N[C@H](Cc1ccc(O)cc1)C(=O)N[C@H](CC(C)C)C(=O)N[C@H](Cc1ccc(O)cc1)C(=O)N[C@H](Cc1ccccc1)C(=O)N[C@H](CCCCN)C(=O)N[C@H](CC(C)C)C(=O)N[C@H](CCC(N)=O)C(=O)N[C@H](CC(C)C)C(=O)N[C@H](CC(C)C)C(=O)N[C@H](CCCCN)C(=O)N[C@H](CCCCN)C(N)=O | – | KCTC 1621, Mueller-Hinton broth | added: 4.5 mM KCl | 8 µM |
| CC[C@H](C)[C@H](NC(=O)[C@H](CCCCN)NC(=O)[C@H](CCCNC(=N)N)NC(=O)[C@H](CCCNC(=N)N)NC(=O)[C@H](CC(C)C)NC(=O)[C@H](CCCCN)NC(=O)[C@H](CCCCN)NC(=O)[C@H](Cc1ccccc1)NC(=O)[C@H](CC(C)C)NC(=O)CNC(=O)[C@H](CCCNC(=N)N)NC(=O)[C@@H](N)CCCNC(=N)N)C(=O)N[C@@H](CCCCN)C(=O)N[C@@H](CCCCN)C(=O)NCC(=O)N[C@@H](Cc1ccccc1)C(=O)N[C@@H](CCCCN)C(=O)N[C@@H](CCCCN)C(=O)N[C@H](C(=O)N[C@@H](Cc1ccccc1)C(=O)N[C@@H](CCCCN)C(=O)N[C@@H](CCCNC(=N)N)C(=O)N[C@@H](CC(C)C)C(=O)N1CCC[C@H]1C(=O)N1CCC[C@H]1C(=O)N[C@H](C(=O)NCC(=O)N[C@H](C(=O)NCC(=O)N[C@H](C(=O)N[C@@H](CO)C(=O)O)C(C)C)C(C)C)C(C)C)[C@@H](C)CC | broth microdilution | MRSA CMCC 43300 | – | 2.58 µM |
| CC[C@H](C)[C@H](NC(=O)[C@H](CCCCN)NC(=O)[C@H](CCCCN)NC(=O)CNC(=O)[C@H](CCCCN)NC(=O)[C@H](CC(C)C)NC(=O)[C@H](CCCCN)NC(=O)[C@H](CCCNC(=N)N)NC(=O)[C@@H](NC(=O)[C@H](CC(C)C)NC(=O)[C@H](CCCNC(=N)N)NC(=O)[C@@H](N)CCCNC(=N)N)[C@@H](C)CC)C(=O)N[C@@H](Cc1ccc(O)cc1)C(=O)N[C@@H](CC(C)C)C(=O)N[C@@H](Cc1ccc(O)cc1)C(=O)N[C@@H](Cc1ccccc1)C(=O)N[C@@H](CCCCN)C(=O)N[C@@H](CC(C)C)C(=O)N[C@@H](CCC(N)=O)C(=O)N[C@@H](CC(C)C)C(=O)N[C@@H](CC(C)C)C(=O)N[C@@H](CCCCN)C(=O)N[C@@H](CCCCN)C(N)=O | broth microdilution | KCTC 1621, Mueller-Hinton broth | added: NH4Cl 6 µM | 16 µM |
| CC[C@H](C)[C@H](NC(=O)CNC(=O)[C@H](C)NC(=O)[C@@H](NC(=O)[C@@H](NC(=O)[C@@H](NC(=O)[C@H](CCCNC(=N)N)NC(=O)[C@@H](NC(=O)[C@@H](NC(=O)[C@@H](NC(=O)[C@@H]1CCCN1C(=O)[C@H](Cc1c[nH]c2ccccc12)NC(=O)[C@@H](NC(=O)[C@H](CCCNC(=N)N)NC(=O)[C@H](CCCCN)NC(=O)[C@@H](NC(=O)[C@@H](N)CCCNC(=N)N)[C@@H](C)CC)C(C)C)C(C)C)C(C)C)[C@@H](C)CC)[C@@H](C)O)C(C)C)C(C)C)C(=O)N[C@@H](CC(N)=O)C(=O)N[C@@H](CC(C)C)C(=O)N[C@@H](Cc1ccc(O)cc1)C(=O)N[C@@H](CCCNC(=N)N)C(=O)N[C@@H](C)C(=O)N[C@H](C(=O)N[C@@H](CCCCN)C(=O)N[C@@H](CCCNC(=N)N)C(=O)N[C@@H](CCCCN)C(=O)O)[C@@H](C)CC | broth microdilution | ATCC 29213, Mueller-Hinton broth | 16 to 20 h, 37 °C | 1.41 µM |

For quick reference, copied from above:
| Compound | test | test system | setting | MIC |
| --- | --- | --- | --- | --- |
| Cn1c(=O)cnc2ccc(F)c(CCNC[C@H]3CN(c4cnc5c(n4)NC(=O)CO5)C(=O)O3)c21 | – | ATCC 29213 | – | 0.008 µg/mL |
